{"data": "Measurements pooled from the literature", "note": "Parts stem from different laboratories: compare values within a part only. Positions count from the first letter of the parent shown.", "chain of UniProt O76039 (whole entry, looked up)": "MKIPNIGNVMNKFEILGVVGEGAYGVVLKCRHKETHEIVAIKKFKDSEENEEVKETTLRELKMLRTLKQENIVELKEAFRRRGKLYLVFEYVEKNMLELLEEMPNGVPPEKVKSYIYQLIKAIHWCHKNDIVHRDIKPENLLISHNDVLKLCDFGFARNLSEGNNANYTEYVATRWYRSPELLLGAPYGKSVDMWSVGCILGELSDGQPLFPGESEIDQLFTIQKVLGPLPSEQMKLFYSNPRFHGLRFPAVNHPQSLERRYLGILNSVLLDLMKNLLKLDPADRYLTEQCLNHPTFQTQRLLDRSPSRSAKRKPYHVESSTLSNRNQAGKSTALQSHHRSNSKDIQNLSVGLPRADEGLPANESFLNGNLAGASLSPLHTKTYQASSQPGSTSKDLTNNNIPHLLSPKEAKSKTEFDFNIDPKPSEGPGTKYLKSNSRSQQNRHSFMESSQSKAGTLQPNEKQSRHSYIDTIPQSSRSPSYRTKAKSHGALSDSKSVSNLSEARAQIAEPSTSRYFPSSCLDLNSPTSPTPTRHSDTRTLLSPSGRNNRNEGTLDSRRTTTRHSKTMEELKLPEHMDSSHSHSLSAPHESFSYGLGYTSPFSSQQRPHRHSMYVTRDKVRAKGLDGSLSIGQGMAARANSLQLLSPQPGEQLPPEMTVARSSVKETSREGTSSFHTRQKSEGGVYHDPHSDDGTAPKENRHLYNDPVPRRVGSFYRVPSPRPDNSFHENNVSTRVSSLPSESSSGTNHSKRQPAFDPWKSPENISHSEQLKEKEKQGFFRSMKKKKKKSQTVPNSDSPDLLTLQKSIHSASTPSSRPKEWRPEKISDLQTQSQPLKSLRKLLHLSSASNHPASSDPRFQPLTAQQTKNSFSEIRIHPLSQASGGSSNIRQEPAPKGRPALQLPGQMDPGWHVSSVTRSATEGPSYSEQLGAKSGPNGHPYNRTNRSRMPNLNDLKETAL", "chain of UniProt Q9BWU1 (whole entry, looked up)": "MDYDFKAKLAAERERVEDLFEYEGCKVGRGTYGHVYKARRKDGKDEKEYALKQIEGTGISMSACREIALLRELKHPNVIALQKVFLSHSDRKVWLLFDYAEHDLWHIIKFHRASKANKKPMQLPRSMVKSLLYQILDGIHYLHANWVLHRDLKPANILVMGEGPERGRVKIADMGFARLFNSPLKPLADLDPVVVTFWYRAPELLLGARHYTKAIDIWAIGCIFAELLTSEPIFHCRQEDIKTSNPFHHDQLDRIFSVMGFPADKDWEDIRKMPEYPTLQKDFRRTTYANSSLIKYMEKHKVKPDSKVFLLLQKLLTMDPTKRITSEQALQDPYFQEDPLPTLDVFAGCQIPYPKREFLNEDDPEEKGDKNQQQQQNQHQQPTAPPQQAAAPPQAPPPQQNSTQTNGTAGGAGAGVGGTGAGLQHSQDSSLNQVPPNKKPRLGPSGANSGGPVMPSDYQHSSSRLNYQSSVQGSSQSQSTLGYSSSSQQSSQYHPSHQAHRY", "chain of UniProt Q12851 (whole entry, looked up)": "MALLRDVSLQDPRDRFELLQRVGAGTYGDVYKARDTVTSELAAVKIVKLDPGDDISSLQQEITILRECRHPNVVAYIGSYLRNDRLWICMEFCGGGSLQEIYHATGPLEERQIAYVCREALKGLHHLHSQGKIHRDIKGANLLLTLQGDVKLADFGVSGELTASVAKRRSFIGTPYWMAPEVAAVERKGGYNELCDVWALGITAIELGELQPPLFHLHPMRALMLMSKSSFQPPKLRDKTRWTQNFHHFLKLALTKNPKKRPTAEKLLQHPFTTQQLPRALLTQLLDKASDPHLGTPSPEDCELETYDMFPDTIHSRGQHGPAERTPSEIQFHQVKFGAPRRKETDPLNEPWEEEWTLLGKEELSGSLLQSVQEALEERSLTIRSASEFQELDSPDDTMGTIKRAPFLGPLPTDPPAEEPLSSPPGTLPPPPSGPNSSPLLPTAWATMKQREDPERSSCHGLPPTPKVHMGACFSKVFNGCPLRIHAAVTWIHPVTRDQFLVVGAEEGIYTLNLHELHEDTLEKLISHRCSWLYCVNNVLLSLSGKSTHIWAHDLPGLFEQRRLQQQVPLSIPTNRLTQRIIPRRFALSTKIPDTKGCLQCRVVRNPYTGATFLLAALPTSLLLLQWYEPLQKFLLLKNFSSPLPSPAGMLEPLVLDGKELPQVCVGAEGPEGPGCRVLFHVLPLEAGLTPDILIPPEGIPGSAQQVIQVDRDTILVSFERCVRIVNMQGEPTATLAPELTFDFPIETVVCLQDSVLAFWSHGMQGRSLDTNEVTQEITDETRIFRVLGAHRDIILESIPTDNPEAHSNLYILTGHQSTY", "chain of UniProt Q13177 (whole entry, looked up)": "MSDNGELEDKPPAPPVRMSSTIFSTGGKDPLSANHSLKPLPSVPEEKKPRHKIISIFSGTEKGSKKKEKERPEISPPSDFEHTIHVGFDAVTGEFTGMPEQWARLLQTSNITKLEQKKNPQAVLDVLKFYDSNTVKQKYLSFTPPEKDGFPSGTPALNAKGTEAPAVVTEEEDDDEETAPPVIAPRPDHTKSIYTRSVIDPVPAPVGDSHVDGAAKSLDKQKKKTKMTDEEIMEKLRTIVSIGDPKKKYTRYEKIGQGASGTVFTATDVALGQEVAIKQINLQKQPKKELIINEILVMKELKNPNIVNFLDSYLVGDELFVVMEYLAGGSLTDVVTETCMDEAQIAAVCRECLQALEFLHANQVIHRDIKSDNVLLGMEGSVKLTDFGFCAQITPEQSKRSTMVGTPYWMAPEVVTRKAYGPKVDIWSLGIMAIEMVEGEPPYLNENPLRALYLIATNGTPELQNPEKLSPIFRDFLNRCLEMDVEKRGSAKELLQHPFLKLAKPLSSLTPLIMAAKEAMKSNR", "chain of UniProt Q9UM73 (whole entry, unmodified, looked up)": "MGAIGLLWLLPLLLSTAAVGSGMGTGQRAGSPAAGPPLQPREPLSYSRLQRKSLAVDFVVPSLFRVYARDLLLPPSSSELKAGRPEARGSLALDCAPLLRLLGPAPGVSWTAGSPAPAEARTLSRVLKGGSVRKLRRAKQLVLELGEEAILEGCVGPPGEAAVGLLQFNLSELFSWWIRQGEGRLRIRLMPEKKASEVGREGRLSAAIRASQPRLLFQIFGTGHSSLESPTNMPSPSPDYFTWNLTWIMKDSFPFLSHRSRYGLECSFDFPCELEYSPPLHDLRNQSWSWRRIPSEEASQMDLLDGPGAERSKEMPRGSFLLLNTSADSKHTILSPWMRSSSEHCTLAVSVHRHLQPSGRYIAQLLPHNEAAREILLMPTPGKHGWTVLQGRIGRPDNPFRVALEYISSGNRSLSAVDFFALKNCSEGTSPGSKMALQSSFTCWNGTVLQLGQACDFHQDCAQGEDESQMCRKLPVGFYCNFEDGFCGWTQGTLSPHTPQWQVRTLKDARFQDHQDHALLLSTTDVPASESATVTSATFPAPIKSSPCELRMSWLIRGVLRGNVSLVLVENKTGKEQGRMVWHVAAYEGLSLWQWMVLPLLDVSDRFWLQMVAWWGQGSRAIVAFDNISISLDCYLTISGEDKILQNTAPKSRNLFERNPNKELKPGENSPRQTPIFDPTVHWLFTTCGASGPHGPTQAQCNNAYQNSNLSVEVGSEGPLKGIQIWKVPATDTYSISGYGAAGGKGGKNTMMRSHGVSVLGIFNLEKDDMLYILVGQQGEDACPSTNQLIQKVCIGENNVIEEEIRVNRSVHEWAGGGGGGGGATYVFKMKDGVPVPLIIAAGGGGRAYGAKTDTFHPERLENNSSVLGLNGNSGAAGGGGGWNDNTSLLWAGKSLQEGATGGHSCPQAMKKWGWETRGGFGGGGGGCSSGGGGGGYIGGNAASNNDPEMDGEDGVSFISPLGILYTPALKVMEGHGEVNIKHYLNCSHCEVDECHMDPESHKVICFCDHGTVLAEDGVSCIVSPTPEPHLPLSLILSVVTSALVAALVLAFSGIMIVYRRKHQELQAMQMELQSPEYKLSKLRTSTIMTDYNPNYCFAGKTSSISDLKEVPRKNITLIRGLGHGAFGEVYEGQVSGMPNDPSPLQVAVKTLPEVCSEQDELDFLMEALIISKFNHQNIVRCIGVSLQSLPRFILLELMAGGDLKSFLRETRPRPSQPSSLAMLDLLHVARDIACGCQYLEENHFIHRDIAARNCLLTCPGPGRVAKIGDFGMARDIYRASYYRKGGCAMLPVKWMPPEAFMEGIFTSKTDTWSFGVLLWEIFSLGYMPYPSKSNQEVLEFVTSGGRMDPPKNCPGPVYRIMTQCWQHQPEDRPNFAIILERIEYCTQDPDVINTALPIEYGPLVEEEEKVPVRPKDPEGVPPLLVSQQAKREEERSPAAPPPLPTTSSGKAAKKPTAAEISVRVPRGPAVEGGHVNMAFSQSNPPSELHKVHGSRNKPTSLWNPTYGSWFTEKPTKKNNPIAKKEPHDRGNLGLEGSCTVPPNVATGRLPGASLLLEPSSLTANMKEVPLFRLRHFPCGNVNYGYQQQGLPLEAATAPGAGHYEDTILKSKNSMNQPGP"}
{"data": "Series 1", "target": "Tyrosine-protein kinase ZAP-70 (ZAP70, Homo sapiens, UniProt P43403)", "effect on": "enzyme activity", "action": "inhibitor", "tested at": "0.5 µM", "relative to": "control", "Target sequence (P43403 1-619)": "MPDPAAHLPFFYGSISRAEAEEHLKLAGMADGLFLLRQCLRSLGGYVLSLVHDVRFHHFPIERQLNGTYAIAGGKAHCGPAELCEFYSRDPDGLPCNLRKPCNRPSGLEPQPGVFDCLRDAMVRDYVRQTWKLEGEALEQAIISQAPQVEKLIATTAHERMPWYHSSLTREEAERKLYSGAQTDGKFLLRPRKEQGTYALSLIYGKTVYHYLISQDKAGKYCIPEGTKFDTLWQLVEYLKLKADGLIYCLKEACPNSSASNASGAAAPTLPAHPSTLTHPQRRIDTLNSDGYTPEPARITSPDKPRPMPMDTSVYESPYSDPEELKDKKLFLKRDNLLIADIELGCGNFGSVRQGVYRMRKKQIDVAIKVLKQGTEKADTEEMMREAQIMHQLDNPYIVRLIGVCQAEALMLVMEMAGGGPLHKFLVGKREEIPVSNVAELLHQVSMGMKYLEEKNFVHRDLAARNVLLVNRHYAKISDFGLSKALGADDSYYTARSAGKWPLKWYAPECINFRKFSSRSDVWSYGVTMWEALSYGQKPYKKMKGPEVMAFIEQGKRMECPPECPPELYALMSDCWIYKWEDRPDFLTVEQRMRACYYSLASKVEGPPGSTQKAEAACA"}
{"SMILES": "OCC(O)CCON=C1C(c2c(O)[nH]c3ccccc23)=Nc2ccccc21 (stereo not shown)", "remaining activity": "97.8%"}
{"SMILES": "Nc1ccc2ncnc(NCCc3ccc(Oc4ccccc4)cc3)c2c1", "remaining activity": "93.2%"}
{"SMILES": "Nc1[nH]nc2nc3ccccc3nc12", "remaining activity": "102%"}
{"SMILES": "COc1ccc(C(=O)Nc2sc3c(c2C(N)=O)CCCC3)cc1OC", "remaining activity": "95.6%"}
{"SMILES": "CC(C)[C@H](CO)Nc1nc(Nc2cc(N)cc(Cl)c2)c2ncn(C(C)C)c2n1", "remaining activity": "102%"}
{"SMILES": "COc1ccc(CNC(=O)Nc2ncc([N+](=O)[O-])s2)cc1", "remaining activity": "102%"}
{"SMILES": "CO[C@H]1C[C@@H]2CC[C@@H](C)[C@@](O)(O2)C(=O)C(=O)N2CCCC[C@H]2C(=O)O[C@H]([C@H](C)C[C@@H]2CC[C@@H](O)[C@H](OC)C2)CC(=O)[C@H](C)/C=C(\\C)[C@@H](O)[C@@H](OC)C(=O)[C@H](C)C[C@H](C)/C=C/C=C/C=C/1C", "remaining activity": "99.2%"}
{"SMILES": "Cn1c2ccccc2c2c3c(c4c5ccccc5n(CCC#N)c4c21)CNC3=O", "remaining activity": "77.7%"}
{"SMILES": "COc1cc2ncnc(Nc3ccc(Oc4ccccc4)cc3)c2cc1OC", "remaining activity": "97%"}
{"SMILES": "Cn1sc(=O)n(Cc2ccccc2)c1=O", "remaining activity": "102%"}
{"SMILES": "Cc1cccc(-c2[nH]c(C(C)(C)C)nc2-c2ccc3c(c2)OCO3)n1", "remaining activity": "106%"}
{"SMILES": "Oc1ccc(-c2nc(-c3ccncc3)c(-c3ccc(F)cc3)[nH]2)cc1", "remaining activity": "100%"}
{"SMILES": "O=C1NC(=O)C(c2cn(CCCO)c3ncccc23)=C1c1cnccn1", "remaining activity": "87.8%"}
{"SMILES": "CCOC(=O)c1c(C)[nH]c(/C=C2\\C(=O)Nc3ccccc32)c1C", "remaining activity": "98.8%"}
{"data": "Series 2", "target": "Eukaryotic initiation factor 4A-I (EIF4A1, Homo sapiens, UniProt P60842, residues 1-406, full length assumed)", "method": "RNA Bind-n-Seq", "molecule type": "RNA", "medium": "in vitro", "tested at": "90 pmol", "notes": "4-mer, random 30-nt RNA, single round", "with": "3 µM iPr-DMDA-PatA, 2 mM ADP, 2 mM phosphate", "relative to": "input library", "direction": "higher = stronger binding", "chain of UniProt P60842 (whole entry, looked up)": "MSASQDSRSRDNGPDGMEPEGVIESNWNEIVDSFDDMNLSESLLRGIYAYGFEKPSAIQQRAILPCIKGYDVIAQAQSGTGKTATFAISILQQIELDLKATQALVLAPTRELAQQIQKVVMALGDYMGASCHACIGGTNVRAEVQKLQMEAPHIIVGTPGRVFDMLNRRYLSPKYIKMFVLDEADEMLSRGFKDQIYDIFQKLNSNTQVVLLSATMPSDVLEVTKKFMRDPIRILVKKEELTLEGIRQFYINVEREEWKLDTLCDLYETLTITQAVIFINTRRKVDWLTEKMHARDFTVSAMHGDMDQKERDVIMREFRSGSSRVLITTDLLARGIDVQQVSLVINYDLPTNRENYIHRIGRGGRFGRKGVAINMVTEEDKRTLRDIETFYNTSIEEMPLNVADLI"}
{"Strand": "AGGG", "4-mer enrichment": "0.719 fold"}
{"Strand": "ACGG", "4-mer enrichment": "0.879 fold"}
{"Strand": "CCUU", "4-mer enrichment": "0.895 fold"}
{"Strand": "ACGA", "4-mer enrichment": "1.31 fold"}
{"Strand": "GAAG", "4-mer enrichment": "1.11 fold"}
{"Strand": "UAUG", "4-mer enrichment": "1.04 fold"}
{"Strand": "AUCA", "4-mer enrichment": "1.23 fold"}
{"Strand": "GCGC", "4-mer enrichment": "0.652 fold"}
{"data": "Series 3", "SMILES": "CS(=O)(=O)c1cc(C2(NC(=O)c3cncc4c3cnn4-c3ccc(F)cc3)CC2)ccn1", "tested at": "1 µM"}
{"target": "MAPK9 (Homo sapiens, UniProt P45984)", "effect on": "cell-free assay", "method": "competition with immobilised ligand", "remaining binding": "100%"}
{"target": "CDK19 (Homo sapiens, UniProt Q9BWU1)", "method": "competition binding", "remaining binding": "91%"}
{"target": "CDKL5 (Homo sapiens, UniProt O76039)", "effect on": "cell-free assay", "method": "competition with immobilised ligand", "remaining binding": "89%"}
{"target": "ZAP70 (Homo sapiens, UniProt P43403)", "effect on": "cell-free assay", "method": "competition with immobilised ligand", "remaining binding": "71%"}
{"target": "CDK9 (Homo sapiens, UniProt P50750)", "effect on": "cell-free assay", "method": "competition with immobilised ligand", "remaining binding": "91%"}
{"target": "MAP4K2 (Homo sapiens, UniProt Q12851)", "effect on": "cell-free assay", "method": "competition with immobilised ligand", "remaining binding": "100%"}
{"target": "PAK2 (Homo sapiens, UniProt Q13177)", "effect on": "cell-free assay", "method": "competition with immobilised ligand", "remaining binding": "100%"}
{"target": "ALK (Homo sapiens, UniProt Q9UM73, C1156Y)", "effect on": "cell-free assay", "method": "competition with immobilised ligand", "remaining binding": "100%"}
{"target": "Tyrosine-protein kinase ABL1, phosphorylated (ABL1, Homo sapiens, UniProt P00519, E255K)", "effect on": "binding", "method": "competition with immobilised ligand", "remaining binding": "100%"}
{"target": "CLK1 (Homo sapiens, UniProt P49759)", "effect on": "cell-free assay", "method": "competition with immobilised ligand", "remaining binding": "98%"}
{"data": "Series 4", "target": "CCNF, cyclin fold, Cln2 fusion (human)", "method": "yeast growth competition, sequencing", "medium": "yeast", "notes": "strong parent motif", "relative to": "not given", "direction": "higher = stronger binding", "starting sequence": "GMNC docking peptide (human); KNAKRNLSSEFAN; partner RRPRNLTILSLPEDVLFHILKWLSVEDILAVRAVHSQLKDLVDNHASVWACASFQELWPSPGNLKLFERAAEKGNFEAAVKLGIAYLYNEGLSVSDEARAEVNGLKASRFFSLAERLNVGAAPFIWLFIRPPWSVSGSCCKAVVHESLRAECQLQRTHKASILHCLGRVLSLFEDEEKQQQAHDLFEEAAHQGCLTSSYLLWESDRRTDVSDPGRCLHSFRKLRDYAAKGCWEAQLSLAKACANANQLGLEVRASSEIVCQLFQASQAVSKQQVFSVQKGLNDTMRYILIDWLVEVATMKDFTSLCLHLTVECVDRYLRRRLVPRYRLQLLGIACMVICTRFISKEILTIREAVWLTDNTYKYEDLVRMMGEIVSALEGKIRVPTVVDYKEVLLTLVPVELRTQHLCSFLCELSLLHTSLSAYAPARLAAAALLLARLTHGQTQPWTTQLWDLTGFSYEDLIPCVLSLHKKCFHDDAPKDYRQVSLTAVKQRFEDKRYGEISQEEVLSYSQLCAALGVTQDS"}
{"Variant": "F11Q", "normalised enrichment score": 0.641}
{"Variant": "A3V", "normalised enrichment score": 1.65}
{"Variant": "S9L", "normalised enrichment score": 2.03}
{"Variant": "S9T", "normalised enrichment score": 0.884}
{"Variant": "K4M", "normalised enrichment score": 0.382}
{"Variant": "E10G", "normalised enrichment score": 0.593}
{"Variant": "F11W", "normalised enrichment score": 0.521}
{"Variant": "N6S", "normalised enrichment score": 1.73}
{"note": "Excerpt of the above (series 3):"}
{"target": "CDK19 (Homo sapiens, UniProt Q9BWU1)", "method": "competition binding", "remaining binding": "91%"}
{"target": "CDKL5 (Homo sapiens, UniProt O76039)", "effect on": "cell-free assay", "method": "competition with immobilised ligand", "remaining binding": "89%"}
{"target": "ZAP70 (Homo sapiens, UniProt P43403)", "effect on": "cell-free assay", "method": "competition with immobilised ligand", "remaining binding": "71%"}
{"target": "CDK9 (Homo sapiens, UniProt P50750)", "effect on": "cell-free assay", "method": "competition with immobilised ligand", "remaining binding": "91%"}
{"target": "MAP4K2 (Homo sapiens, UniProt Q12851)", "effect on": "cell-free assay", "method": "competition with immobilised ligand", "remaining binding": "100%"}
